Measured values collected from several papers.
Parts stem from different laboratories: compare values within a part only. Several values in a cell are separate wells, animals, samples, runs or records. ± marks the error that the study gave.
Chain of UniProt P51813 (whole entry, looked up): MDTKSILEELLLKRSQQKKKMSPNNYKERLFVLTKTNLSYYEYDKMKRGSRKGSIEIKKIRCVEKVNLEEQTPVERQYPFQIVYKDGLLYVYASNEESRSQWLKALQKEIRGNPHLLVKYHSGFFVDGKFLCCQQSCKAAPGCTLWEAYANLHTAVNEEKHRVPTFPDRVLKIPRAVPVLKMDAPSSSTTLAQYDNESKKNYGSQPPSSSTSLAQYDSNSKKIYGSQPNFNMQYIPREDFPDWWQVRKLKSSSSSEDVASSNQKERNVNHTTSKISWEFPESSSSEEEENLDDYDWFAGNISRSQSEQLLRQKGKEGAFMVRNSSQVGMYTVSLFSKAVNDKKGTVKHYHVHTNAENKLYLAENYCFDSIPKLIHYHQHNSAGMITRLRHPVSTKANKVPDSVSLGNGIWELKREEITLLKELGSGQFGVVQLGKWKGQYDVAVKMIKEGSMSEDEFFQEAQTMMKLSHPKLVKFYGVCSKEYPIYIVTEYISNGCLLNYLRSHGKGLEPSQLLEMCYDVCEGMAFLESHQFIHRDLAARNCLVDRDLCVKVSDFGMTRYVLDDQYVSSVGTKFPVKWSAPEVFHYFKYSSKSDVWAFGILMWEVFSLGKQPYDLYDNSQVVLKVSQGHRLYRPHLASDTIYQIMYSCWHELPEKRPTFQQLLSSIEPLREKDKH
Chain of UniProt P29317 (whole entry, looked up): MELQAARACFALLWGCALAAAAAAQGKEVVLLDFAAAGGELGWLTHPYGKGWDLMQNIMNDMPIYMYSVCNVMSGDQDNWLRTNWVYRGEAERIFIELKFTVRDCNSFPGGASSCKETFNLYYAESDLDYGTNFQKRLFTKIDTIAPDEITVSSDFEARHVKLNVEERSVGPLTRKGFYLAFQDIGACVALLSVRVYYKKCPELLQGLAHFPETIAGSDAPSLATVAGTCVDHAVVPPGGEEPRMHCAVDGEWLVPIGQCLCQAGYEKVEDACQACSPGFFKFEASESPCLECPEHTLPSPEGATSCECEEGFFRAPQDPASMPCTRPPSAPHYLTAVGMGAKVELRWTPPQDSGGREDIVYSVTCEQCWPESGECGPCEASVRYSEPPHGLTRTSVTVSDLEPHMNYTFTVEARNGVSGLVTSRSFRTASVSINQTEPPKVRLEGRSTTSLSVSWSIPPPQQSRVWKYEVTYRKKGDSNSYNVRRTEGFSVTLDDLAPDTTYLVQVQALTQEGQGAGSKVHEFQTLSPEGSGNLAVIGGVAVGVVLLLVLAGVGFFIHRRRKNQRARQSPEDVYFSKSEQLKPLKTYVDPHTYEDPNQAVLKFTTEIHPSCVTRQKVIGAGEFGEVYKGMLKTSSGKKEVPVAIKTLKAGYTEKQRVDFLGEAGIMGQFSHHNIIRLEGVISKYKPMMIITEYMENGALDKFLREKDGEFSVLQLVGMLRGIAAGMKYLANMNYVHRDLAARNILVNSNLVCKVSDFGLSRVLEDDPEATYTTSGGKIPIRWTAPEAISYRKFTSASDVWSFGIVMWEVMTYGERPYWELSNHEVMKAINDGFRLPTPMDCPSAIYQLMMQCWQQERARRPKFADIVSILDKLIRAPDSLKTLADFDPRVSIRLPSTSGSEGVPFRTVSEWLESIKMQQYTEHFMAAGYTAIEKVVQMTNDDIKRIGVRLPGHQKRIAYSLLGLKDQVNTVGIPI
Chain of UniProt P50613 (whole entry, looked up): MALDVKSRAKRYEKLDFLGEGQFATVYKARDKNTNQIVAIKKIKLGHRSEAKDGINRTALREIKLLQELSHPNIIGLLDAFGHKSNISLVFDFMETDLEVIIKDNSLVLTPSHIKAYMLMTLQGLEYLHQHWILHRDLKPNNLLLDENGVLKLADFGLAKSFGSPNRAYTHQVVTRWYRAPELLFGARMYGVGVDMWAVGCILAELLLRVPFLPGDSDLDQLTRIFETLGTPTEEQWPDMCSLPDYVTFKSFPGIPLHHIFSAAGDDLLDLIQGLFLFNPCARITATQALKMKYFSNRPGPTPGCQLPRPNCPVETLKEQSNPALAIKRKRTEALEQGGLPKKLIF

Set 1 — observed: thermal unfolding; method: differential scanning fluorimetry; tested at: 5.5 µM; reading: higher = more unfolded
SMILES: C[C@@H]1CN(c2ccc(-c3cc(C(=O)NCCOCCOCCOCCOCCOCCOCCNC(=O)/C=C/c4[nH]cc(C(=O)N[C@@H](CC(N)=O)c5ccc(F)c(Cl)c5)c4-c4ccc(Cl)cc4F)ccc3F)cc2NC(=O)c2ccc(F)cc2C(F)(F)F)C[C@H](C)N1C
WDR5: WD repeat-containing protein 5 (WDR5, Homo sapiens, UniProt P61964)
DCAF1: DDB1- and CUL4-associated factor 1 (DCAF1, Homo sapiens, UniProt Q9Y4B6)
Chain of UniProt Q9Y4B6 (whole entry, looked up): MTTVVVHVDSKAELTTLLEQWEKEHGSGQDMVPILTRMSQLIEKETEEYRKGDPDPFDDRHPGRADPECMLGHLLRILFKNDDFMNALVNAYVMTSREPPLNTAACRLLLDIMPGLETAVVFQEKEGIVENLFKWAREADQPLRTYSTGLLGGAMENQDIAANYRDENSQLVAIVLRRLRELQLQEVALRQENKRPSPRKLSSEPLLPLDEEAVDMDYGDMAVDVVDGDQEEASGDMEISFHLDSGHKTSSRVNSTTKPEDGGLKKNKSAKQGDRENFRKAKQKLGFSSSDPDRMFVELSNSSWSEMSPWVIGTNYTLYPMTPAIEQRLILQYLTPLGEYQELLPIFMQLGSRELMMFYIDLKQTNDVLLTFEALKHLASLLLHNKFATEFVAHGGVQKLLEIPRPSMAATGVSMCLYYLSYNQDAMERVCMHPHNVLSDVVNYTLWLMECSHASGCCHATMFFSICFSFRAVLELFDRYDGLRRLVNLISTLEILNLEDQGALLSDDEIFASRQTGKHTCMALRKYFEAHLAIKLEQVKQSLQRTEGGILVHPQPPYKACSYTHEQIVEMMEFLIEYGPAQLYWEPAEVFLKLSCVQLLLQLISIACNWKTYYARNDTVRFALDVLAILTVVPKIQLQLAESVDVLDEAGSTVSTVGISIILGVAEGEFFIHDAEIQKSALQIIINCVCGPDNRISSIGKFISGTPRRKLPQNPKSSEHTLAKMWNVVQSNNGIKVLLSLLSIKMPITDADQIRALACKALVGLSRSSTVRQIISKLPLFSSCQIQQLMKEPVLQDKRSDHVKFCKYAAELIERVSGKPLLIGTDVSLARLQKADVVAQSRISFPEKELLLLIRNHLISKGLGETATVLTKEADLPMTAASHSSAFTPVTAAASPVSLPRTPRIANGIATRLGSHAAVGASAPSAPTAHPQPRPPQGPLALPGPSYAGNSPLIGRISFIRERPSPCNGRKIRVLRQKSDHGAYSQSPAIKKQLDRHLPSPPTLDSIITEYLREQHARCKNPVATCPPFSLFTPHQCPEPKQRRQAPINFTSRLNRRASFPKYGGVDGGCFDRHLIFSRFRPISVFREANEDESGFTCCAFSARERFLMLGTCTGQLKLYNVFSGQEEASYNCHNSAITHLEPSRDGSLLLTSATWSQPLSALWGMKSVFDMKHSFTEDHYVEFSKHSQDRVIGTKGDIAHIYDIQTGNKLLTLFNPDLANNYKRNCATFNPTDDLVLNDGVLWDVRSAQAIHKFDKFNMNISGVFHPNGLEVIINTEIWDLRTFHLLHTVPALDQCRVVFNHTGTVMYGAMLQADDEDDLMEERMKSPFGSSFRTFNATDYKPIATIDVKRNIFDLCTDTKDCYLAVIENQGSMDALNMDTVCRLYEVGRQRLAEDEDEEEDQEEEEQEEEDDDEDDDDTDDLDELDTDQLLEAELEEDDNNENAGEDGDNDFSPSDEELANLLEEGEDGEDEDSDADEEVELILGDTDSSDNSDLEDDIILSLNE
It gave 13300 a.u. for “SYPRO Orange fluorescence” (WDR5; 26.4 °C).
The “SYPRO Orange fluorescence” was 47000 a.u. (WDR5; 74.61 °C).
It gave 15600 a.u. for “SYPRO Orange fluorescence” (DCAF1; 46.8 °C).
The “SYPRO Orange fluorescence” was 39500 a.u. (DCAF1; 58.21 °C).
The “SYPRO Orange fluorescence” was 53300 a.u. (DCAF1; 65.41 °C).
WDR5; 45.6 °C — “SYPRO Orange fluorescence”: 14700 a.u.
The “SYPRO Orange fluorescence” was 30400 a.u. (DCAF1; 92.61 °C).
For DCAF1; 77.21 °C: “SYPRO Orange fluorescence” read 41900 a.u.
WDR5; 52.61 °C — “SYPRO Orange fluorescence”: 16600 a.u.
The “SYPRO Orange fluorescence” was 48700 a.u. (WDR5; 75.01 °C).
The “SYPRO Orange fluorescence” was 44800 a.u. (DCAF1; 74.01 °C).

Set 2 — tested at: 1 µM
Structure (SMILES): CC[C@@]1(c2ccccc2)C2=C(CC(C)(C)CC2=O)Nc2n[nH]cc21
For Proto-oncogene tyrosine-protein kinase Src (SRC, Homo sapiens, UniProt P12931); binding, competition with immobilised ligand: remaining binding read 100%.
Cyclin-dependent kinase-like 3 (CDKL3, Homo sapiens, UniProt Q8IVW4); kinase binding, KINOMEscan; reference: DMSO control — remaining binding: 100%.
The remaining binding was 100% (Cytoplasmic tyrosine-protein kinase BMX (BMX, Homo sapiens, UniProt P51813); binding, competition with immobilised ligand).
The remaining binding was 100% (Tyrosine-protein kinase ABL1, phosphorylated (ABL1, Homo sapiens, UniProt P00519, T315I); kinase binding, KINOMEscan; reference: DMSO control).
For Epidermal growth factor receptor (EGFR, Homo sapiens, UniProt P00533, G719S); kinase binding, KINOMEscan; reference: DMSO control: remaining binding read 100%.
It gave 81% for remaining binding (Mitogen-activated protein kinase kinase kinase 7 (MAP3K7, Homo sapiens, UniProt O43318); binding, competition with immobilised ligand).
Serine/threonine-protein kinase Nek1 (NEK1, Homo sapiens, UniProt Q96PY6); kinase binding, KINOMEscan; reference: DMSO control — remaining binding: 85%.
The remaining binding was 100% (Cyclin-dependent kinase 7 (CDK7, Homo sapiens, UniProt P50613); binding, competition with immobilised ligand).
For TGF-beta receptor type-2 (TGFBR2, Homo sapiens, UniProt P37173); binding, competition with immobilised ligand: remaining binding read 100%.
For cAMP-dependent protein kinase catalytic subunit beta (PRKACB, Homo sapiens, UniProt P22694); binding, competition with immobilised ligand: remaining binding read 100%.
Mast/stem cell growth factor receptor Kit (KIT, Homo sapiens, UniProt P10721, A829P); kinase binding, KINOMEscan; reference: DMSO control — remaining binding: 100%.
It gave 100% for remaining binding (Focal adhesion kinase 1 (PTK2, Homo sapiens, UniProt Q05397); kinase binding, KINOMEscan; reference: DMSO control).
The remaining binding was 100% (Ephrin type-A receptor 2 (EPHA2, Homo sapiens, UniProt P29317); binding, competition with immobilised ligand).

Set 3
Compound: Cc1cc2c([nH]1)c(=O)[nH]c(=S)n2Cc1cccc(OC/C(=C/F)CN)c1
MPO: Myeloperoxidase (MPO, Homo sapiens, UniProt P05164)
Chain of UniProt P05164 (whole entry, looked up): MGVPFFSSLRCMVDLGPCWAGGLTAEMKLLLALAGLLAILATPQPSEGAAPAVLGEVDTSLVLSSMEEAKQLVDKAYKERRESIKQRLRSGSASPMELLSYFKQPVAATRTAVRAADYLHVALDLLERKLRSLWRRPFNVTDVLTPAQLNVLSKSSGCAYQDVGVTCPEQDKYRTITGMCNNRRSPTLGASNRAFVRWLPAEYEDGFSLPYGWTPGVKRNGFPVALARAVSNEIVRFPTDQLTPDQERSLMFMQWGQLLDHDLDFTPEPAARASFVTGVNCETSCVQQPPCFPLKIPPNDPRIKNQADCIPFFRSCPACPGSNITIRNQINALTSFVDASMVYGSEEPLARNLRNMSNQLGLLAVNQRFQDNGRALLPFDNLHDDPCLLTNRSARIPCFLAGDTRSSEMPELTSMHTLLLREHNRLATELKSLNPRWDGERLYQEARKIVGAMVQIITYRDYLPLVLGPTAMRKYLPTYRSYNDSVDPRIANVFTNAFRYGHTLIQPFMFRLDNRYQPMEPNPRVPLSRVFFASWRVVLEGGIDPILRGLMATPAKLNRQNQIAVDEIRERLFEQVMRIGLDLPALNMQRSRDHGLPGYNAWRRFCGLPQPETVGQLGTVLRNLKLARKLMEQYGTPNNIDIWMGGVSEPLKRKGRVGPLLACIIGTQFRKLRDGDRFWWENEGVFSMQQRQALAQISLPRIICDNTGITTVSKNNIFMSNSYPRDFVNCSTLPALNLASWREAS
AOC3: Amine oxidase [copper-containing] 3 (AOC3, Homo sapiens, UniProt Q16853)
Chain of UniProt Q16853 (whole entry, looked up): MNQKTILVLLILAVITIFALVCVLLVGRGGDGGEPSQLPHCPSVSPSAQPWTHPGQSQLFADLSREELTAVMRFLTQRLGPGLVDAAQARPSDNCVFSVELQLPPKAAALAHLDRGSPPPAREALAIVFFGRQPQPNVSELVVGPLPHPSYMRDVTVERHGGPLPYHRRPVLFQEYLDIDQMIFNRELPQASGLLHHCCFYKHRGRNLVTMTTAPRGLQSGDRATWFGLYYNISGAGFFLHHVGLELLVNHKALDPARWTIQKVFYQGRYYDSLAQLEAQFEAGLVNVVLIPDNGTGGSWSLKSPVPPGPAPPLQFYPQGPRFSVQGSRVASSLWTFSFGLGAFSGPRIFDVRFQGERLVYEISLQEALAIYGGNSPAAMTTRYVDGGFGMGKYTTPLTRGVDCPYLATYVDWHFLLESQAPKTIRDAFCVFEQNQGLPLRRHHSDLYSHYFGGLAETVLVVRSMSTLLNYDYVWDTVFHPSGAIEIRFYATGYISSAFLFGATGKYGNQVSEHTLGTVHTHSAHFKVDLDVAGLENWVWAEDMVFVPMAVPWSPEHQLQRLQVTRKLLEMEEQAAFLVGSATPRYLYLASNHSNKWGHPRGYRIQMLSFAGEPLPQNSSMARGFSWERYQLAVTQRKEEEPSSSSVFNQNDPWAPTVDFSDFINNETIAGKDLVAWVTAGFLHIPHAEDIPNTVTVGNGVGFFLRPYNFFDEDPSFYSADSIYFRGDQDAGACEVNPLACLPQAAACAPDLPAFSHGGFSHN
MPO; enzyme activity, inhibitor, fluorescence; 5 µM — inhibition: 80.3% and 86.2% and 79%.
AOC3; enzyme activity, inhibitor, fluorescence; 500 pM — inhibition: -1.97% and 1.08%.
The inhibition was 30.3% and 24.2% (AOC3; enzyme activity, inhibitor, fluorescence; 13.7 nM).
For AOC3; enzyme activity, inhibitor, fluorescence; 41.2 nM: inhibition read 62.7% and 64.4%.
MPO; Amplex Red; 0.0206 µM — inhibition: 7.42% and -1.88% and 3.98%.
It gave 10.8% and 13.7% for inhibition (AOC3; enzyme activity, inhibitor, fluorescence; 4.6 nM).
AOC3; enzyme activity, inhibitor, fluorescence; 0.1235 µM — inhibition: 89.3% and 88.4%.
It gave 100% and 99.8% for inhibition (AOC3; enzyme activity, inhibitor, fluorescence; 10 µM).

Single results of other studies
`CN(C1COC1)C(C)(C)/C=C(\C#N)C(=O)N1CCC[C@H]1Cn1nc(-c2ccc(Oc3ccccc3)cc2F)c2c(N)ncnc21` has a residence time of 2640 ± 840 min (Cytoplasmic tyrosine-protein kinase BMX (BMX, Homo sapiens, UniProt P51813); fluorescence competition).
